{"data": "Results from different studies", "ache": "Acetylcholinesterase (ache, Electrophorus electricus, UniProt O42275)", "chain of UniProt O42275 (whole entry, looked up)": "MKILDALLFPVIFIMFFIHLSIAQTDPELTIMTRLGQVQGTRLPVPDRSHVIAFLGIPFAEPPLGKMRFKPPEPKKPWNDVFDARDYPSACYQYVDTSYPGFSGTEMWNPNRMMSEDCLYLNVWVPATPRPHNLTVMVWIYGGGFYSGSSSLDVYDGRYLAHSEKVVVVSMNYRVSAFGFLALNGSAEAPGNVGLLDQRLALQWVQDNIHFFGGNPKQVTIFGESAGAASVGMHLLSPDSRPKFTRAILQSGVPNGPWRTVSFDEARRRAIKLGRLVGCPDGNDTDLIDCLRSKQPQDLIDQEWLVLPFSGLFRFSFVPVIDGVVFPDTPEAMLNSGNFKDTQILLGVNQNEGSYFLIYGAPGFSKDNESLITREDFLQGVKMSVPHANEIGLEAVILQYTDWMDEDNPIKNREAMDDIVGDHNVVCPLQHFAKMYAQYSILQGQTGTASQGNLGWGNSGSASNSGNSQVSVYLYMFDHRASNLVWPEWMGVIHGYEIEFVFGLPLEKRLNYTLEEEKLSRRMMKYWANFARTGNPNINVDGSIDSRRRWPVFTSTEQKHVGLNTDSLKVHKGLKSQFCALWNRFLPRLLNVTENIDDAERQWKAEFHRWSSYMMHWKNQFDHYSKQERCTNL", "chain of UniProt Q15139 (whole entry, looked up)": "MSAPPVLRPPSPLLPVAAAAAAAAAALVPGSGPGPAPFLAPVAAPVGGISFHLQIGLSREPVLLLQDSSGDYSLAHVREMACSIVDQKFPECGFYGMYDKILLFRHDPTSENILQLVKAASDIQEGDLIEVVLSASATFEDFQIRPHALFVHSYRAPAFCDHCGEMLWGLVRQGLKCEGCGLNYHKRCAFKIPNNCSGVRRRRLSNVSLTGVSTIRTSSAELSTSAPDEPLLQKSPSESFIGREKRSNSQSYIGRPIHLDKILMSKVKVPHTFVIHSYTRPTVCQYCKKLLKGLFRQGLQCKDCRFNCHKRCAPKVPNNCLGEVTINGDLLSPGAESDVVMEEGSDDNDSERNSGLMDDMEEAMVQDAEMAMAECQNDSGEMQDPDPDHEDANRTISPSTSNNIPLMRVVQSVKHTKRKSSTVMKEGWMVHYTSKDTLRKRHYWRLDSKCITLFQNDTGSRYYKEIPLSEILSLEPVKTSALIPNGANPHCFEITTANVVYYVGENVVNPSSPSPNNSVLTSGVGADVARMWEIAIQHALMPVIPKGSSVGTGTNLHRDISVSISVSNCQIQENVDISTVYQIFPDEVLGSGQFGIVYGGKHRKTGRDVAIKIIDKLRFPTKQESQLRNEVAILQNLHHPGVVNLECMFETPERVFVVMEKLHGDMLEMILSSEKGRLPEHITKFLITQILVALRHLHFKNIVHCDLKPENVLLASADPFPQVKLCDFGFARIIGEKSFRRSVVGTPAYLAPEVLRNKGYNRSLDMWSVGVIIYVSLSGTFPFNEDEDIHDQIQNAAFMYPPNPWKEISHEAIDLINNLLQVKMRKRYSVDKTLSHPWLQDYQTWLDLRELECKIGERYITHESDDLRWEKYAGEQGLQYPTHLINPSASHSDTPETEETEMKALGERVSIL", "chain of UniProt P48736 (whole entry, looked up)": "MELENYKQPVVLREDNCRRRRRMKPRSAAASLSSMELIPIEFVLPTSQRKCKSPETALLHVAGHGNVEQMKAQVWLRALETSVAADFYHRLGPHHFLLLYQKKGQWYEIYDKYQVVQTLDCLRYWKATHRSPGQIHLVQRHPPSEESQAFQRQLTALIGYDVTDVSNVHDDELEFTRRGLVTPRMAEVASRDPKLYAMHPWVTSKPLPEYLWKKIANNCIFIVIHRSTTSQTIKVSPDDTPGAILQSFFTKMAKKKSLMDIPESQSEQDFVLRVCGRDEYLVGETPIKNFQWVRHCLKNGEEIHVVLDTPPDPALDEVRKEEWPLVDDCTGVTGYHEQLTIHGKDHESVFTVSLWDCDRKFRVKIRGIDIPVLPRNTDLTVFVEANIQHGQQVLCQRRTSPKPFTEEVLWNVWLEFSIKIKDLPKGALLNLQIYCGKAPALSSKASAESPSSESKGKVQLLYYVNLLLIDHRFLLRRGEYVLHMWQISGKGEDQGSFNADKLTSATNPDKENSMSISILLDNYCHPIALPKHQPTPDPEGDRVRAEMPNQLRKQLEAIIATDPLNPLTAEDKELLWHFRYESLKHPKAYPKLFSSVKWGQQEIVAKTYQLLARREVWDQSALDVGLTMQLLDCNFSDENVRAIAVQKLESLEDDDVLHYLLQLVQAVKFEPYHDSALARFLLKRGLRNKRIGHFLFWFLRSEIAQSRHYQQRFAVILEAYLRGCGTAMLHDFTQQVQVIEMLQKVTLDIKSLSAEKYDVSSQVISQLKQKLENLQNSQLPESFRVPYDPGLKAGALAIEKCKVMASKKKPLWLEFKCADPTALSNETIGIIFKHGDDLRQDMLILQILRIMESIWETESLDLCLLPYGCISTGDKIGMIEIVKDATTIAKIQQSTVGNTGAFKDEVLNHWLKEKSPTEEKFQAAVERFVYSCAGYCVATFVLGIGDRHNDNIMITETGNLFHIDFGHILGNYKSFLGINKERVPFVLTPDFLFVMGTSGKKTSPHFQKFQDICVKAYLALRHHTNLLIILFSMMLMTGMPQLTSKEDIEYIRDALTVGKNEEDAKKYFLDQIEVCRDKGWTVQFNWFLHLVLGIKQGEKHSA", "chain of UniProt P42336 (whole entry, looked up)": "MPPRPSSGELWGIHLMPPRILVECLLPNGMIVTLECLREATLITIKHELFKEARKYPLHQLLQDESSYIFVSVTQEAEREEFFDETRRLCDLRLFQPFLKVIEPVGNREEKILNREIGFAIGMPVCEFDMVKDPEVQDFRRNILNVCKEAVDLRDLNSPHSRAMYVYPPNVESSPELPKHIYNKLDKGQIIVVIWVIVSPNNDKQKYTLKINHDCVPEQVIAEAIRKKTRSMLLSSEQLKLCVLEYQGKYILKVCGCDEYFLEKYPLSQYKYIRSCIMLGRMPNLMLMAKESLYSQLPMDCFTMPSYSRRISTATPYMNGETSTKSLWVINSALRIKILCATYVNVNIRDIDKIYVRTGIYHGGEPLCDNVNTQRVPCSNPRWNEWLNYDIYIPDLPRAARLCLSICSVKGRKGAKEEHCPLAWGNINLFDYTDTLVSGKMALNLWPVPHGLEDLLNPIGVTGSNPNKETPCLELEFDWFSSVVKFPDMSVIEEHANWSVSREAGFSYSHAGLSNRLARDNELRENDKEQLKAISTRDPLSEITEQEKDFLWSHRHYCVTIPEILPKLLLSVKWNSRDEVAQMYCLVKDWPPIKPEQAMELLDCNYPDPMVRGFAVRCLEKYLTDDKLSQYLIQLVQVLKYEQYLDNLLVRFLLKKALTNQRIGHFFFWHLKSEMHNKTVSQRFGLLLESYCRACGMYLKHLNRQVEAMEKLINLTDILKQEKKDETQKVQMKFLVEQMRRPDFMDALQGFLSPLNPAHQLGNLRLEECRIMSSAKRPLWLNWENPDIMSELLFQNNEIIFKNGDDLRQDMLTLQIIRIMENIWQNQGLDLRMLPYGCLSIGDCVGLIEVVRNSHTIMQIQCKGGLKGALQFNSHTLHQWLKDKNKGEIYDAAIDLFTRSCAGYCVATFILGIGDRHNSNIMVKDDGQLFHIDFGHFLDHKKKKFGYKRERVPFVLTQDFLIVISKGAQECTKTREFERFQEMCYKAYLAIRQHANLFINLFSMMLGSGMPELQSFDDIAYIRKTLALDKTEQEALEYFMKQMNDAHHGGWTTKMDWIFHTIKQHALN", "chain of UniProt P48039 (whole entry, looked up)": "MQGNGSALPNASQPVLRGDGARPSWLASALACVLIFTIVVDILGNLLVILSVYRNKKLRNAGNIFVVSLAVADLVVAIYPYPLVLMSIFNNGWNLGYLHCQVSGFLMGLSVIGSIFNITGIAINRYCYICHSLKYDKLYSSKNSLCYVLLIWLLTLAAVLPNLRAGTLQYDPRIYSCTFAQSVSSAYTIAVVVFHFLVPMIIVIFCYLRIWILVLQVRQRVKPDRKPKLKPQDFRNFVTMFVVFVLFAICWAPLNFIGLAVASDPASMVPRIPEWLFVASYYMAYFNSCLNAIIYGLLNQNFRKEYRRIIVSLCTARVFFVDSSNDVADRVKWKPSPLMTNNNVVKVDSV", "chain of UniProt Q86X55 (whole entry, looked up)": "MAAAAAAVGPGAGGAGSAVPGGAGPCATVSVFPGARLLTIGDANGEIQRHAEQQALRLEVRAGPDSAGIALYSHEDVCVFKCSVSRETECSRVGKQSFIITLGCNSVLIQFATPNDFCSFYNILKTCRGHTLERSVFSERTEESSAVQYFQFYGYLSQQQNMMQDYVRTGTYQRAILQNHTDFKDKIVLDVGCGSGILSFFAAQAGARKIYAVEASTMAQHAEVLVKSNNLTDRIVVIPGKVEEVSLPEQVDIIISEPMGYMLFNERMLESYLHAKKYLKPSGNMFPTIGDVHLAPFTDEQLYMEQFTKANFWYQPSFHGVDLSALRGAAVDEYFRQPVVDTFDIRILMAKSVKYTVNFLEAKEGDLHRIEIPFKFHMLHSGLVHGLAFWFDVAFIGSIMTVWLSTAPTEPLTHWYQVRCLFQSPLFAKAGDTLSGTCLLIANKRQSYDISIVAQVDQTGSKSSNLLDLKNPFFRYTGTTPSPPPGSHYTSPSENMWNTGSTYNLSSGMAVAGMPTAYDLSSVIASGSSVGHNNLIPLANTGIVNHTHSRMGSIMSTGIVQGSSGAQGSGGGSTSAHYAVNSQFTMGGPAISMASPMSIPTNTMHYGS"}
{"SMILES": "CCCCN(C=O)c1c(CC)nc2ccc(C(=O)N(C)Cc3ccco3)cn12", "target": "ache", "observed": "enzyme activity", "action": "inhibitor", "technique": "Ellman", "tested at": "5 µM", "inhibition": "65%"}
{"SMILES": "CCC1CC(c2ccc(C(=O)O)cc2C)=NN1c1ccc(C#N)c(Cl)c1 (stereo not shown)", "target": "CARM1 (Homo sapiens, UniProt Q86X55)", "observed": "enzyme activity", "action": "inhibitor", "tested at": "10 µM", "inhibition": "3%"}
{"SMILES": "O=C(CN1CN(c2ccccc2)C2(CCN(C(=O)c3cnc4[nH]ncc4c3)CC2)C1=O)NCC(F)(F)F", "target": "CHEK1 (Homo sapiens, UniProt O14757)", "action": "inhibitor", "tested at": "concentration not given", "inhibition": "< 50%"}
{"SMILES": "NCC1CCN(Cc2ccccc2F)CC1", "target": "ache", "observed": "enzyme activity", "action": "inhibitor", "technique": "Ellman", "tested at": "20 µM", "inhibition": "44.2%"}
{"SMILES": "CC(C)[C@H]1NC(=O)C[C@H]2/C=C/CCSSC[C@@H](NC1=O)C(=O)N[C@H](Cc1cccc3ccccc13)C(=O)NCC(=O)O2", "target": "PRKD1 (Homo sapiens, UniProt Q15139)", "observed": "enzyme activity", "action": "inhibitor", "tested at": "10 µM", "inhibition": "0.5%"}
{"SMILES": "c1ccc(Cn2c(-c3ccc(OC[C@H](C4CCNCC4)n4c(-c5ccccc5)nc5ccccc54)cc3)nc3ccccc32)cc1", "target": "PDE6D (Homo sapiens, UniProt O43924)", "observed": "enzyme activity", "action": "inhibitor", "tested at": "5 µM", "inhibition": "62%"}
{"SMILES": "C[n+]1cn([C@@H]2O[C@H](COP(=O)(O)OP(=O)([O-])OP(=O)(O)O)[C@@H](O)[C@H]2O)c2nc(N)nc(O)c21", "target": "mRNA decapping complex subunit 2, with Dcp1 (dcp2, Schizosaccharomyces pombe, UniProt O13828)", "tested at": "200 µM", "time": "0.25 h", "inhibition": "0.8%"}
{"SMILES": "O=C(NC1CCN(c2ncnc3[nH]cnc23)CC1)c1cccc(NS(=O)(=O)c2ccc(C(F)(F)F)cc2)c1", "target": "RNMT (Homo sapiens, UniProt O43148)", "observed": "enzyme activity", "action": "inhibitor", "tested at": "concentration not given", "inhibition": "no inhibition"}
{"SMILES": "CN(/N=C/c1ccccc1C(=O)O)c1nc(-c2ccccc2Cl)cs1", "target": "PIK3CA (Homo sapiens, UniProt P42336)", "observed": "enzyme activity", "action": "inhibitor", "tested at": "1 µM", "inhibition": "11.9%"}
{"SMILES": "C[C@H](NCc1ccc(-c2ccc(C(F)(F)F)cc2)cc1)C(N)=O", "target": "PIK3CG (Homo sapiens, UniProt P48736)", "observed": "cell-free assay", "technique": "competition with immobilised ligand", "tested at": "1 µM", "inhibition": "0%"}
{"SMILES": "CN[C@@H]1[C@H](O)[C@H](NC)[C@H]2O[C@]3(O)[C@H](O[C@@H]2[C@H]1O)O[C@H](C)C[C@H]3NC(=O)Cc1cc(Cl)ccn1", "target": "MTNR1A (Homo sapiens, UniProt P48039)", "observed": "ligand displacement", "technique": "radioligand", "tested at": "10 µM", "inhibition": "0%"}
{"SMILES": "CN(C)[C@H]1C[C@@]23CC[C@@]4(O2)C(=CC[C@]2(C)[C@@H](c5ccc6ccncc6c5)CC[C@H]24)C=C3[C@@H](O)[C@@H]1O", "target": "MARK3 (Homo sapiens, UniProt P27448)", "observed": "ATP probe labelling", "action": "inhibitor", "technique": "KiNativ profiling", "tested at": "0.1 µM", "inhibition": "0.7%"}
{"SMILES": "CS(C)(=O)=Nc1ccc(-c2ccc(-c3nc4cc(O[C@@H]5CO[C@H]6[C@@H]5OC[C@H]6O)[nH]c4cc3F)cc2)cc1", "target": "Cathepsin D (CTSD, Homo sapiens, UniProt P07339)", "observed": "enzyme activity", "action": "inhibitor", "tested at": "10 µM", "inhibition": "-6%"}
{"note": "Some of these lines once more:"}
{"SMILES": "CN(C)[C@H]1C[C@@]23CC[C@@]4(O2)C(=CC[C@]2(C)[C@@H](c5ccc6ccncc6c5)CC[C@H]24)C=C3[C@@H](O)[C@@H]1O", "target": "MARK3 (Homo sapiens, UniProt P27448)", "observed": "ATP probe labelling", "action": "inhibitor", "technique": "KiNativ profiling", "tested at": "0.1 µM", "inhibition": "0.7%"}
